Published values of several laboratories.
Compare with care: the assays were run in different laboratories. Values joined by “and” are separate records of one study, mostly repeats; a detail may differ. ± gives the spread as reported.

`CCn1c2ccccc2c2cc(NC(=O)CN3CCN(S(=O)(=O)c4ccc(OC)cc4)CC3)ccc21`: “NAADP-mediated Ca2+ release” “inactive” (NAADP receptor; antagonist, fluo-3 fluorescence; Lytechinus pictus, egg homogenate; up to 6 µM, added: NAADP 30 to 50 nM).
For `O=C(O)[C@@H](O)[C@@H](O)[C@H](O)[C@@H](O)C(=O)O`, the ΔTm was 2.94 °C (SAR11_0271 Candidatus Pelagibacter sp.; differential scanning fluorimetry; concentration not given; higher = stronger binding).
`CN1C(=O)/C(=C/c2ccccc2Cl)Sc2ccc(C(=O)N3CCN(Cc4ccc5c(c4)OCO5)CC3)cc21` — result for “NAADP-mediated Ca2+ release”: “inactive” (NAADP receptor; antagonist, fluo-3 fluorescence; Lytechinus pictus, egg homogenate; up to 6 µM, added: NAADP 30 to 50 nM).
`c1coc(-c2n[nH]cc2-c2ccnc3ccccc23)c1` — result for “log2 fold change”: -0.21 (AKL1 (Candida albicans); kinase binding, MIB/MS competition; Candida albicans lysate; 1 µM; baseline: DMSO).
For `O=C(COc1ccccc1-c1ccccc1)N1CCN(S(=O)(=O)c2ccc3c(c2)OCCO3)CC1`, “NAADP-mediated Ca2+ release” read “inactive” (NAADP receptor; antagonist, fluo-3 fluorescence; Lytechinus pictus, egg homogenate; up to 6 µM, added: NAADP 30 to 50 nM).
`CC(C)C[C@H](NC(=O)[C@H](Cc1ccc(O)cc1)NC(=O)[C@H](CCC(N)=O)NC(=O)[C@@H](N)CC(=O)O)C(=O)N[C@@H](C)C(=O)N[C@H](C(=O)N1CCC[C@H]1C(=O)N[C@@H](CCC(N)=O)C(=O)N[C@@H](Cc1c[nH]cn1)C(=O)N1CCC[C@H]1C(=O)N[C@@H](Cc1ccc(O)cc1)C(=O)N[C@@H](CCC(N)=O)C(=O)N[C@@H](Cc1c[nH]c2ccccc12)C(=O)N[C@@H](C)C(=O)N[C@@H](CCCCN)C(=O)O)C(C)C` has a fraction bound of 90% (human calcineurin A/B; NMR HSQC; 62 µM, added: 75 µM CnAB).
`O=c1cc(-c2ccccc2)oc2cc(O)c(O)c(O)c12` gave an inhibition of 71.9 ± 5.3% (bovine serum albumin; methylglyoxal-mediated glycation, fluorescence; concentration not given).
`NC(=O)c1c(NC(=O)CN2CCN(S(=O)(=O)c3ccc4c(c3)OCCO4)CC2)sc2c1CCCC2`: “NAADP-mediated Ca2+ release” “inactive” (NAADP receptor; antagonist, fluo-3 fluorescence; Lytechinus pictus, egg homogenate; up to 6 µM, added: NAADP 30 to 50 nM).
`O=c1cc(-c2ccc(O)cc2)oc2cc(O)cc(O)c12` gave an inhibition of 73.66 ± 0.58% (bovine serum albumin; methylglyoxal-mediated glycation, fluorescence; concentration not given).
`CCS(=O)(=O)c1nc(S(=O)(=O)c2ccccc2Cl)c(N2CC3(CC3)C2)s1` has an EC50 of greater than 31.6 µM (Keap1-NRF2, human; NRF2 nuclear translocation, activator; U2OS).
With `C[N+](C)(C)CCCn1c(=O)c2cc(Br)c3c(=O)n(CCC[N+](C)(C)C)c(=O)c4c5[nH]c6ccccc6[nH]c5c(c1=O)c2c34.[I-].[I-]` the ΔTm was 3.8 ± 0.3 °C (human telomeric G-quadruplex; FRET melting; 0.25 µM, K+ 100 mM).
The IC50 of `Cc1cccc(C)c1NC(=O)CCCC(C)O` (stereo not drawn) is reported as roughly 2000 µM (neuronal sodium channel; sodium current, blocker, node voltage clamp; Rhinella marina).
For `CS(=O)(=O)N(Cc1ccccc1)c1ccc(C(=O)N/N=C/c2cccc(Oc3ccccc3)c2)cc1`, “NAADP-mediated Ca2+ release” read “inactive” (NAADP receptor; antagonist, fluo-3 fluorescence; Lytechinus pictus, egg homogenate; up to 6 µM, added: NAADP 30 to 50 nM).
`CN(C)CCCn1c(=O)c2cc(Br)c3c(=O)n(CCCN(C)C)c(=O)c4c5[nH]c6ccc(C(=O)O)cc6[nH]c5c(c1=O)c2c34` has a ΔTm of 3 ± 0.1 °C (human telomeric G-quadruplex; FRET melting; 0.25 µM, K+ 100 mM).
For `O=S(=O)(NCCNC/C=C/c1ccc(Br)cc1)c1cccc2cnccc12`, “embryos arrested at zygote stage” read 0% (PKA; inhibitor; mouse zygotes; 20 µM, injection, hCG, 120 h post, early embryonic development).
`CC(C)NCC(O)c1ccc(O)c(O)c1` (stereo not drawn) gave a β-arrestin2 recruitment of 2990 RLU and 3810 RLU and 3750 RLU and 3350 RLU and 4450 RLU and 3940 RLU (β2 adrenergic receptor E122Q (human); PRESTO-Tango luciferase; HTLA cells; 3 µM).
For `CN(C)c1ccc2nc3ccc(=[N+](C)C)cc-3sc2c1`, the IC50 was 19 to 49 µM (GABAA receptor, human, γ2-containing; inhibitor; HEK293 cells).
`O=c1c(O)c(-c2ccc(O)c(O)c2)oc2cc(O)cc(O)c12`: “fluorescent AGE formation” “decreased” (bovine serum albumin; fructose glycation, inhibitor; 100 to 800 ppm, 21 days, added: fructose).
`COc1ccc([C@@H]2CC(=O)c3c(O)cc(O)cc3O2)cc1O` gave an inhibition of 51.6 ± 5.42% (bovine serum albumin; methylglyoxal-mediated glycation, fluorescence; concentration not given).
`COc1cccc(CNC(=O)C#Cc2cn(Cc3ccc(C(=O)O)cc3)c(=O)[nH]c2=O)c1` — result for “remaining MMP-9 activity”: 96 ± 11% (MMP-9; inhibitor, colorimetric; 20 µM).
`CN(C)CCCn1c(=O)c2cc(Br)c3c(=O)n(CCCN(C)C)c(=O)c4c5[nH]c6ncccc6[nH]c5c(c1=O)c2c34` gave a ΔTm of 1.5 ± 0.7 °C (human telomeric G-quadruplex; FRET melting; 0.25 µM, K+ 100 mM).
With `CC(=O)O[C@H]1C(=O)[C@@]2(C)[C@H]([C@H](OC(=O)c3ccccc3)[C@]3(O)C[C@H](OC(=O)[C@H](O)[C@@H](NC(=O)c4ccccc4)c4ccccc4)C(C)=C1C3(C)C)[C@]1(OC(C)=O)CO[C@@H]1C[C@@H]2O` the Kd was 0.2 µM (tubulin (microtubules); binding, radioligand saturation binding; J774.2; 60 min, 37 °C, 20% horse serum).
`Oc1ccccc1-c1n[nH]cc1-c1ccnc2ccccc12` — result for “log2 fold change”: -0.55 (POM1 (Candida albicans); kinase binding, MIB/MS competition; Candida albicans lysate; 10 µM; baseline: DMSO).
`O=c1c(O)c(-c2ccc(O)cc2)oc2cc(O)cc(O)c12` gave an inhibition of 78.3 ± 2.63% (bovine serum albumin; methylglyoxal-mediated glycation, fluorescence; concentration not given).
`O=C(COC(=O)c1cccc(Oc2ccccc2)c1)COC(=O)c1cccc(Oc2ccccc2)c1`: “NAADP-mediated Ca2+ release” “inactive” (NAADP receptor; antagonist, fluo-3 fluorescence; Lytechinus pictus, egg homogenate; up to 6 µM, added: NAADP 30 to 50 nM).
`O=C(O)[C@H](O)[C@@H](O)[C@H](O)[C@H](O)CO[C@H]1O[C@H](CO)[C@H](O)[C@H](O)[C@H]1O` has a ΔTm of 3.02 °C (SAR11_0271 Candidatus Pelagibacter sp.; differential scanning fluorimetry; concentration not given; higher = stronger binding).
For `NC/C(=C\F)COc1cccc(Cn2c(=S)[nH]c(=O)c3[nH]cnc32)c1`, the enzyme activity was 1.01 and 1.02 and 1.09 and 1.07 and 1.11 (AOC4 (dog); substrate turnover, AOC4 oxidation; concentration not given, unit not given; baseline: DMSO control).
For `O=C(/C=C(\O)C(=O)N1CCN(c2ccc(-n3cccc3)cc2)CC1)c1cc(Cc2cc(F)cc(F)c2)cn(Cc2ccccc2F)c1=O`, the IC50 was greater than 300 µM (UGT1A1, UGT1A6, UGT1A9, UGT2B7 (human); enzyme activity, competitive inhibitor; added: 4-methylumbelliferone).
`C[N+](C)(C)CCCn1c(=O)c2ccc3c(=O)n(CCC[N+](C)(C)C)c(=O)c4c5[nH]c6ccccc6[nH]c5c(c1=O)c2c34.[I-].[I-]` has a ΔTm of 8.5 ± 0.6 °C (human telomeric G-quadruplex; FRET melting; 0.25 µM, K+ 100 mM).
For `COc1cc2c(cc1OC)-c1cc(NCCN3CCN(C(=O)c4ccc(F)cc4)CC3)nc(=O)n1CC2`, “NAADP-mediated Ca2+ release” read “inactive” (NAADP receptor; antagonist, fluo-3 fluorescence; Lytechinus pictus, egg homogenate; up to 6 µM, added: NAADP 30 to 50 nM).
`CN(C)CCCn1c(=O)c2cc(Br)c3c(=O)n(CCCN(C)C)c(=O)c4c5[nH]c6ccccc6[nH]c5c(c1=O)c2c34` gave a ΔTm of 3.5 ± 0.7 °C (human telomeric G-quadruplex; FRET melting; 0.25 µM, K+ 100 mM).
For `CC(C)(c1ccccc1)c1ccc(OC[C@@H](O)CN[C@H](Cc2ccccc2)c2nc(-c3ccccc3)no2)cc1`, “NAADP-mediated Ca2+ release” read “inactive” (NAADP receptor; antagonist, fluo-3 fluorescence; Lytechinus pictus, egg homogenate; up to 6 µM, added: NAADP 30 to 50 nM).
Under “remaining MMP-9 activity”, `O=C(O)CCCOc1cccc(CNC(=O)C#Cc2cn(Cc3ccc(C(=O)O)cc3)c(=O)[nH]c2=O)c1` is recorded as 107 ± 3% (MMP-9; inhibitor, FRET; 10 µM).
